{"data": "Measured values gathered from unrelated publications", "note": "Each numbered part is a random draw from the data of one study; scales do not carry over between parts.", "sequence of UniProt Q96BR1 (whole entry, looked up)": "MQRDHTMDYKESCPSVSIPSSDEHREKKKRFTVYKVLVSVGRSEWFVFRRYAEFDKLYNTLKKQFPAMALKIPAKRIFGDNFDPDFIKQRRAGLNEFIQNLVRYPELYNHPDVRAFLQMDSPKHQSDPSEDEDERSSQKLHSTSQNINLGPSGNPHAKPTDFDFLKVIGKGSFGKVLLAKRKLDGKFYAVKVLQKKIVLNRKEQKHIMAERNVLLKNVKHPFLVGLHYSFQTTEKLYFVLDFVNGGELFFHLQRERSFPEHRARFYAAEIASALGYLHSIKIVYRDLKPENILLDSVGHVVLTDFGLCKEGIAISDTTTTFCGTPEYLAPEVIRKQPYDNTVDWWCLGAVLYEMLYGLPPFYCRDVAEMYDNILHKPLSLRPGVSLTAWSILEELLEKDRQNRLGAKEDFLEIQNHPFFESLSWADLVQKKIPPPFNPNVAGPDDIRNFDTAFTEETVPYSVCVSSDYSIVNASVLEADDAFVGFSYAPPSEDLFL"}
{"data": "Block 1", "target": "ATP-dependent RNA helicase DDX3X, helicase core (DDX3X, Homo sapiens, UniProt O00571, residues 132-607)", "technique": "RNA Bind-n-Seq", "molecule type": "RNA", "medium": "in vitro", "concentration": "90 pmol", "setting": "4-mer, random 30-nt RNA, single round", "with": "3 µM iPr-DMDA-PatA, 2 mM ADP, 2 mM phosphate", "baseline": "input library", "reading": "higher = stronger binding", "sequence of UniProt O00571 (132-607, looked up)": "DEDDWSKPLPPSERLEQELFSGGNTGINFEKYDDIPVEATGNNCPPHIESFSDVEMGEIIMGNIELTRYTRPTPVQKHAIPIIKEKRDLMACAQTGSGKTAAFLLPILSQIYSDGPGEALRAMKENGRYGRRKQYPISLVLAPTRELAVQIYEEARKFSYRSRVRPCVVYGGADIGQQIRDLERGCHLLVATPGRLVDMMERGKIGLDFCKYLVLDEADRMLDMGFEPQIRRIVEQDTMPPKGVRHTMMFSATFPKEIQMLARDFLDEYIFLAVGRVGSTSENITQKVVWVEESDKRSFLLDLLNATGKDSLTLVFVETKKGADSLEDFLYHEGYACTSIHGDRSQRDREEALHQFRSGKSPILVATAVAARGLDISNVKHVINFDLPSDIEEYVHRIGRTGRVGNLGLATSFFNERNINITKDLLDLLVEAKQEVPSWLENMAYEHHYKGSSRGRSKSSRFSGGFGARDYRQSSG"}
{"Oligonucleotide": "UAUA", "4-mer enrichment [fold]": 1.3}
{"Oligonucleotide": "CAUU", "4-mer enrichment [fold]": 0.909}
{"Oligonucleotide": "AGUG", "4-mer enrichment [fold]": 1.03}
{"Oligonucleotide": "UGGU", "4-mer enrichment [fold]": 0.852}
{"Oligonucleotide": "UACG", "4-mer enrichment [fold]": 0.943}
{"Oligonucleotide": "UUUU", "4-mer enrichment [fold]": 1.19}
{"Oligonucleotide": "CGUU", "4-mer enrichment [fold]": 0.815}
{"Oligonucleotide": "UCCU", "4-mer enrichment [fold]": 0.934}
{"data": "Block 2", "target": "Ras GTPase-activating protein-binding protein 1, RRM domain (G3BP1, Homo sapiens, UniProt Q13283)", "technique": "RNA Bind-n-Seq", "molecule type": "RNA", "medium": "in vitro", "concentration": "1 µM", "setting": "whole 134-nt RNA, ends assumed", "with": "150 mM KCl", "baseline": "input library", "reading": "higher = stronger binding", "sequence of UniProt Q13283 (whole entry, looked up)": "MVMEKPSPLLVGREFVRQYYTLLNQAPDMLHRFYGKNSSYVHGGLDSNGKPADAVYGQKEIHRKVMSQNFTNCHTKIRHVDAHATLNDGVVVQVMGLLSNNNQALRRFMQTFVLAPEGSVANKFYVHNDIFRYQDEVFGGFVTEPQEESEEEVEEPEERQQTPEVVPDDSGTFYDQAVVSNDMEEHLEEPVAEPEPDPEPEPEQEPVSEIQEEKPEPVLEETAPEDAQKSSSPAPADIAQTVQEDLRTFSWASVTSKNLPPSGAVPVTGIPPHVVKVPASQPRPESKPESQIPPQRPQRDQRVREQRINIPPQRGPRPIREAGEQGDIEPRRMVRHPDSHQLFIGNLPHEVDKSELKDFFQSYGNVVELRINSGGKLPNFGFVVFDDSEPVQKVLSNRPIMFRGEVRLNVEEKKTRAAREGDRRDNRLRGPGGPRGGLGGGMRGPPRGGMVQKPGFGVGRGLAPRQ"}
{"Oligonucleotide": "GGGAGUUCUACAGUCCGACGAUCACCAUGCAGGUGAGCAUCUUUGGGAAGUGGGGCAAGGGGGGGAUAGGGAGGGGGGUAACACUUUGGGAACAGGUGGUCCCAGGUCGUUUCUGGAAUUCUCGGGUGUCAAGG", "log2 enrichment": -0.476}
{"Oligonucleotide": "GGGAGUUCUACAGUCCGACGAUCCAAGUCCUGUGCUACACAUCGUAUGUACCGAAUCGGGAAAAAGGGUGGGUUUGGGAAAGUAUUAUGUUACGCCGUUCGGAUCUGCACUUCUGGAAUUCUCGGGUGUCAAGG", "log2 enrichment": 0.904}
{"Oligonucleotide": "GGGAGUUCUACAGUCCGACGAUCUCCUGUGCUACACAUCGUAUGUACCGAAUCGGGGAAAAAAGGAAAAAAGGAAAAAAGGGGAAAGUAUUAUGUUACGCCGUUCGGAUCUGCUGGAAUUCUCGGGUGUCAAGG", "log2 enrichment": 0.0371}
{"Oligonucleotide": "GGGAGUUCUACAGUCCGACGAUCCAGAACGAUCGAUACAGAAACCACGCUGCCGCCACCACACCAUCACCAUCGACAGAACAGUCCUUAAUCCAGAAACCUGAAAUGAAGGAAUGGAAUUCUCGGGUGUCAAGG", "log2 enrichment": 0.0595}
{"Oligonucleotide": "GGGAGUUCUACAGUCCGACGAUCUAACUUUAGAGGAGGAUCUGAUGGAUAUGGCAGUGGACGUGGAUUUGGGGAUGGCUAUAAUGGGUAUGGUGGAGGACCUGGAGGUGGCAAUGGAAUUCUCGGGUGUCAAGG", "log2 enrichment": -0.326}
{"Oligonucleotide": "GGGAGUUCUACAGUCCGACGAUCCACAGACAACACGCACCCACACAGACACAGAGGGAAGGGGUAGGGAUGGGGACAGGGUGCACAGCAGGGCGGGGUAGGACCCCAGCCCCUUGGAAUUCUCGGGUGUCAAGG", "log2 enrichment": -0.0461}
{"Oligonucleotide": "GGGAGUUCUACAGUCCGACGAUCCUCAAGUCCUGUGCUACACAUCGUAUGUACCGAAUCGGUGGUGGAAAAAAAGGAAAGUAUUAUGUUACGCCGUUCGGAUCUGCACUUCCAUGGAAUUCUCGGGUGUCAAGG", "log2 enrichment": -0.204}
{"Oligonucleotide": "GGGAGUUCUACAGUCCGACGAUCCCUGUGCUACACAUCGUAUGUACCGAAUCGGGCCCCCCCGGGCCCCCCCGGCCCCCCCGGGAAAGUAUUAUGUUACGCCGUUCGGAUCUGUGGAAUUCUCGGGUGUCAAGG", "log2 enrichment": -0.638}
{"data": "Further values, each from its own experiment"}
{"Substance": "ERLIN1 (Homo sapiens, UniProt O75477)", "tested on": "ERLIN2 (Homo sapiens, UniProt O94905)", "assay": "cross-linking MS", "test system": "cell fractions", "setting": "with: DHSO", "measurement": "cross-linked residues", "value": "E221 to E226"}
{"Substance": "C#Cc1cccc(Nc2ncnc3cc(OCCOC)c(OCCOC)cc23)c1", "tested on": "SGK3 (Homo sapiens, UniProt Q96BR1)", "assay": "enzyme activity, inhibitor", "setting": "0.5 µM", "scale": "baseline: control", "measurement": "remaining activity", "value": "100%"}
{"Substance": "CCT7 (Homo sapiens, UniProt Q99832)", "tested on": "CGN (Homo sapiens, UniProt Q9P2M7)", "assay": "cross-linking MS", "test system": "cell fractions", "setting": "with: DSSO", "measurement": "cross-linked residues", "value": "K320 to K632"}
{"note": "Some of these lines once more (block 1):"}
{"Oligonucleotide": "UACG", "4-mer enrichment [fold]": 0.943}
